# Measurements gathered from unrelated publications.
# Compare with care: the assays were run in different laboratories.
SMILES,host,route,dose,time,setting,added,tolerability
CC(C)NC(=O)COc1cccc(-c2nc(Nc3ccc4[nH]ncc4c3)c3ccccc3n2)c1,human,,200 mg daily,,clinical DDI study,,not toxic
Cn1c(=O)oc2ccc(-c3ccc(C[C@@H](C#N)NC(=O)[C@@H]4CNCCCO4)cc3)cc21,"human, varying renal function",oral,25 mg single,,,,not toxic
C=CCn1c(=O)c2cnc(Nc3ccc(N4CCN(C)CC4)cc3)nc2n1-c1ccc2c(n1)[C@@](O)(CC)CC2,human,,400 mg once daily intermittent 5:2,,,,not toxic
COCCCOc1ccnc(C[S+]([O-])c2nc3ccccc3[nH]2)c1C (stereo not shown),healthy humans,,,,,,not toxic
CN1C(=O)[C@@H](NC(=O)c2nnc(Cc3ccccc3)[nH]2)COc2cccnc21,"human, healthy subjects",,dose not given,14 days,,,not toxic
CC1(C)CC[C@]2(NC(=O)C(C)(F)F)CC[C@]3(C)[C@H](C(=O)C=C4[C@@]5(C)C=C(C#N)C(=O)C(C)(C)[C@@H]5CC[C@]43C)[C@@H]2C1,human,,,,alone or with DME/transporter modulators,,not toxic
CC(C)n1c(Nc2cccnc2)nc2cnc(Nc3ccc(N4CCN(C)CC4)cc3)nc21,"healthy human, male",,,,"single dose, alone or co-administered","itraconazole, gemfibrozil or rifampin",not toxic
N=C(N)NCc1cccc([131I])c1,human,,,,,,not toxic
CC(C)C[C@H](NC(=O)[C@H](CC(C)C)NC(=O)[C@H](Cc1c[nH]c2ccccc12)NC(=O)[C@H](CCC(=O)O)NC(=O)[C@@H](NC(=O)[C@H](Cc1ccccc1)NC(=O)[C@H](CCC(=O)O)NC(=O)[C@H](CCCCNC(=O)COCCOCCNC(=O)COCCOCCNC(=O)CC[C@H](NC(=O)CCCCCCCCCCCCCCCCCCC(=O)O)C(=O)O)NC(=O)[C@H](C)NC(=O)[C@H](CCCCN)NC(=O)[C@H](CCCCN)NC(=O)[C@H](CCC(=O)O)NC(=O)[C@H](CC(=O)O)NC(=O)[C@H](CC(C)C)NC(=O)[C@H](Cc1ccc(O)cc1)NC(=O)[C@H](CCCCN)NC(=O)[C@H](CO)NC(=O)[C@H](Cc1ccc(O)cc1)NC(=O)[C@H](CC(=O)O)NC(=O)[C@H](CO)NC(=O)[C@@H](NC(=O)[C@H](Cc1ccccc1)NC(=O)[C@@H](NC(=O)CNC(=O)[C@H](CCC(N)=O)NC(=O)C(C)(C)NC(=O)[C@@H](N)Cc1c[nH]cn1)[C@@H](C)O)[C@@H](C)O)C(C)C)C(=O)N[C@@H](CCC(=O)O)C(=O)NCC(=O)NCC(=O)N1CCC[C@H]1C(=O)N[C@@H](CO)C(=O)N[C@@H](CO)C(=O)NCC(N)=O,human obesity or overweight,subcutaneous,16 mg weekly,,trial,,not toxic
Cc1cc(C)c(CNC(=O)c2cc(Cl)c3c(c2C)O[C@@](C)([C@H]2CC[C@H](N(C)C)CC2)O3)c(=O)[nH]1,healthy human male,,200 mg single dose,,,,not toxic

# Some of these lines once more:
SMILES,host,route,dose,time,setting,added,tolerability
CC(C)C[C@H](NC(=O)[C@H](CC(C)C)NC(=O)[C@H](Cc1c[nH]c2ccccc12)NC(=O)[C@H](CCC(=O)O)NC(=O)[C@@H](NC(=O)[C@H](Cc1ccccc1)NC(=O)[C@H](CCC(=O)O)NC(=O)[C@H](CCCCNC(=O)COCCOCCNC(=O)COCCOCCNC(=O)CC[C@H](NC(=O)CCCCCCCCCCCCCCCCCCC(=O)O)C(=O)O)NC(=O)[C@H](C)NC(=O)[C@H](CCCCN)NC(=O)[C@H](CCCCN)NC(=O)[C@H](CCC(=O)O)NC(=O)[C@H](CC(=O)O)NC(=O)[C@H](CC(C)C)NC(=O)[C@H](Cc1ccc(O)cc1)NC(=O)[C@H](CCCCN)NC(=O)[C@H](CO)NC(=O)[C@H](Cc1ccc(O)cc1)NC(=O)[C@H](CC(=O)O)NC(=O)[C@H](CO)NC(=O)[C@@H](NC(=O)[C@H](Cc1ccccc1)NC(=O)[C@@H](NC(=O)CNC(=O)[C@H](CCC(N)=O)NC(=O)C(C)(C)NC(=O)[C@@H](N)Cc1c[nH]cn1)[C@@H](C)O)[C@@H](C)O)C(C)C)C(=O)N[C@@H](CCC(=O)O)C(=O)NCC(=O)NCC(=O)N1CCC[C@H]1C(=O)N[C@@H](CO)C(=O)N[C@@H](CO)C(=O)NCC(N)=O,human obesity or overweight,subcutaneous,16 mg weekly,,trial,,not toxic
Cc1cc(C)c(CNC(=O)c2cc(Cl)c3c(c2C)O[C@@](C)([C@H]2CC[C@H](N(C)C)CC2)O3)c(=O)[nH]1,healthy human male,,200 mg single dose,,,,not toxic
